# Results collected from several papers.
# “And” joins repeats or separate records; there may be more than shown. Numbers after ± are the reported error.
# BRD3 BD2: Bromodomain-containing protein 3, BD2 (BRD3, Homo sapiens, UniProt Q15059)
Compound,target or system,assay,system,setting,scale,quantity,value
CC1(Cc2ccccc2)C(=O)N(c2cccc(CN3CCN(Cc4ccc(Br)cc4)CC3)c2)C1=O.O=C(O)C(F)(F)F,"Dipeptidyl peptidase 8 (Homo sapiens, UniProt Q6V1X1)","enzyme activity, inhibitor",,5 µM,,activity vs control,< 5%
CNC(=O)C[C@H](Cc1ccc(C#N)cc1)NC(=O)c1cc(-c2ccc(CN[C@H](C)c3ccc(C)cc3)o2)ccc1Cl,"[Pyruvate dehydrogenase (acetyl-transferring)] kinase isozyme 4, mitochondrial (PDK4, Homo sapiens, UniProt Q16654)","enzyme activity, inhibitor",,1 µM,,activity vs control,99%
COC1CN([C@H]2CC[C@H]([C@@]3(C)Oc4c(Cl)cc(C(=O)NCc5c(SC)cc(C)[nH]c5=O)c(C)c4O3)CC2)C1,,"RNA-seq, refers to: CCR3 mouse homolog","mouse, HT-1376 xenograft, whole blood",dose not given,reference: vehicle,log2 fold change,1.1
C[C@@H]1C[C@H](Nc2ccccc2)c2cc(F)ccc2N1C(=O)c1ccc(C(F)(F)F)c(F)c1,"Ecdysone receptor (Aedes albopictus, UniProt Q9U3Y4)","ligand binding, inhibitor",intact cells,added: [3H]ponasterone A,direction not given,pIC50 Z-score,0.51
N=C(N)NCCC[C@@H]1NC(=O)[C@H](Cc2ccccc2)NC(=O)CSC[C@@H](C(=O)N[C@@H](CC(=O)O)C(N)=O)NC(=O)[C@H](CCCNC(=N)N)NC(=O)[C@H](Cc2c[nH]c3ccccc23)NC(=O)[C@H](Cc2ccc(O)cc2)NC(=O)[C@H](Cc2ccc(O)cc2)NC(=O)[C@H](Cc2ccccc2)NC1=O,"Stimulator of interferon genes protein (STING1, Homo sapiens, UniProt Q86WV6, H232R)","thermal stability, DSF",,200 µM,,ΔTm,8.83 °C
CCCC[C@H](NC(=O)COCCOCCNC(=O)CN1CCN(CC(=O)O)CCN(CC(=O)O)CC1)C(=O)N[C@H]1CC(=O)NCCCC[C@@H](C(N)=O)NC(=O)[C@H](Cc2c[nH]c3ccccc23)NC(=O)[C@H](CCCNC(=N)N)NC(=O)[C@@H](Cc2ccccc2)NC(=O)[C@H](Cc2c[nH]cn2)NC1=O [technetium-99m labelled],,,"C57 mouse, kidneys","intravenous, 0.037 MBq, 0.5 h",,tissue uptake,9.9 ± 0.94 %ID/g
C=CC(=O)N1CCCC(n2c(=O)c3ncccc3n(Cc3ccc(Oc4ccccc4)cc3)c2=O)C1 (stereo not drawn),"NudC domain-containing protein 2 (NUDCD2, Homo sapiens, UniProt Q8WVJ2)","thermal proteome profiling, refers to: NUDCD2",,treated,,melting temperature,45.4 °C and 56.2 °C
Cc1cn(CC(=O)N(CCNC(=O)CN(CCNC(=O)CN(CCNC(=O)CN(CCNC(=O)CN(CCNC(=O)CN(CCNC(=O)CN(CCNC(=O)CN(CCN)C(=O)Cn2cnc3c(=O)[nH]c(N)nc32)C(=O)Cn2cnc3c(N)ncnc32)C(=O)Cn2cc(C)c(=O)[nH]c2=O)C(=O)Cn2cnc3c(=O)[nH]c(N)nc32)C(=O)Cn2cc(C)c(=O)[nH]c2=O)C(=O)Cn2cnc3c(=O)[nH]c(N)nc32)C(=O)Cn2cnc3c(N)ncnc32)CC(=O)NCCN(CC(=O)NCCOCCOCC(N)=O)C(=O)Cn2cnc3c(N)ncnc32)c(=O)[nH]c1=O,complementary RNA,"duplex formation, UV melting curve fit",PBS,"1 µM, fit parameter α 0.5",,Tm,44.4 ± 0.1 °C
Nc1ncc(-c2cc(-c3cnn(CC(F)(F)F)c3)ncc2F)nc1C(=O)NC1CNCC(F)C1 (stereo not drawn),CSNK2A1,KINOMEscan,,1 µM,reference: DMSO control,remaining binding,100%
COC(=O)[C@@]1(Cc2ccccc2)C=C(C(=O)OC(C)(C)C)C(=O)CC1,"Mitogen-activated protein kinase 8 (MAPK8, Homo sapiens, UniProt P45983)","D-peptide binding, inhibitor, FP peptide displacement",,31.25 µM,lower is stronger displacement,fraction bound,-0.00733
Cn1cc(-c2cc(N3CCCCS3(=O)=O)ccc2N[C@H]2CC[C@H](C)CC2)c2cc[nH]c2c1=O (stereo in doubt),BRD3 BD2,"binding, competition with immobilised ligand",,1 µM,,remaining binding,0.5%
CCCC[C@H](NC(=O)CCCCCCCNC(=O)CN1CCN(CC(=O)O)CCN(CC(=O)O)CC1)C(=O)N[C@H]1CC(=O)NCCCC[C@@H](C(N)=O)NC(=O)[C@H](Cc2c[nH]c3ccccc23)NC(=O)[C@H](CCCNC(=N)N)NC(=O)[C@@H](Cc2ccccc2)NC(=O)[C@H](Cc2c[nH]cn2)NC1=O [technetium-99m labelled],,,"C57 mouse, brain","intravenous, 0.037 MBq, 2 h",,tissue uptake,0.02 ± 0.01 %ID/g
CCCCCC(O)/C=C/C=O (stereo not drawn),"Elongation factor 2 (EEF2, Homo sapiens, UniProt P13639)",competitive isoTOP-ABPP,"proteome, soluble, MDA-MB-231","100 µM, added: iodoacetamide probe","reference: DMSO over compound-treated, higher = stronger cysteine blockade",isoTOP-ABPP competition ratio,8.8
COC(=O)[C@@]1(C)C=C(C(=O)Nc2cccc(C(=O)Nc3ccc(Nc4nccc(-c5cccnc5)n4)c(C)c3)c2)C(=O)CC1,"Mitogen-activated protein kinase 8, phosphorylated (MAPK8, Homo sapiens, UniProt P45983)","enzyme activity after dialysis, inhibitor",,"10 µM, 4 days, unit not given",reference: no inhibitor,remaining activity,0.277
CC(=O)N1c2ccc(-c3ccc(CNC(=O)c4cn5cc(-c6cnc(N)nc6)nc(N6CCOCC6)c5n4)cc3)cc2CC[C@@H]1C,BRD3 BD2,"binding, competition with immobilised ligand",,10 µM,,remaining binding,0%
CC(/C=C/C(=O)NO)=C\[C@@H](C)C(=O)c1ccc(N(C)C)cc1,"Histone deacetylase 8 (HDAC8, Homo sapiens, UniProt Q9BY41)",ITC,Tris-HCl buffer,"concentration not given, 288 K",,binding stoichiometry,0.85
Cc1ncsc1-c1ccc(C(C)NC(=O)C2CC(O)CN2C(=O)C(NC(=O)CCCCCCCCCCN2CCCC(Nc3ncc(Cl)c(Nc4ccccc4S(=O)(=O)C(C)C)n3)C2)C(C)(C)C)cc1 (stereo not drawn),22Rv1,"RNA-seq, refers to: SPATA2L mRNA",,concentration not given,reference: DMSO,log2 fold change,-1.18
C#CCOC(=O)[C@@]1(C)C=C(C(=O)OC(C)(C)C)C(=O)CC1,"Mitogen-activated protein kinase 1 (MAPK1, Homo sapiens, UniProt P28482)","enzyme activity, D-SENSOR",,"133.3 µM, single replicate",,normalized kinase activity,0.741 and 0.675 and 0.682
CN(C)C/C=C/C(=O)Nc1ccc2nc(NCCCCCN(C)C)nc(NCCCCCCN(C)C)c2c1,"Histone-lysine N-methyltransferase EZH2 (EZH2, Homo sapiens, UniProt Q15910)","enzyme activity, inhibitor, radiometric",,10 µM,,inhibition,52%
Cc1nn(-c2cccc(N)c2)c(=O)c2cnc(Nc3ccc(N4CCNCC4)cc3)nc12,"Protein kinase C eta type (PRKCH, Homo sapiens, UniProt P24723)","enzyme activity, inhibitor",,,,IC50,> 10 µM
COc1ccccc1-c1ccncc1C(=O)Nc1nnc(OCc2ccc(Cl)cc2)s1,"Bifunctional 3'-5' exonuclease/ATP-dependent helicase WRN, residues 500-946 (WRN, Homo sapiens, UniProt Q14191)","ATPase activity, ADP-Glo",,0.12 µM,reference: 0 µM cpd,remaining activity,110%

# For quick reference, copied from above:
Compound,target or system,assay,system,setting,scale,quantity,value
C[C@@H]1C[C@H](Nc2ccccc2)c2cc(F)ccc2N1C(=O)c1ccc(C(F)(F)F)c(F)c1,"Ecdysone receptor (Aedes albopictus, UniProt Q9U3Y4)","ligand binding, inhibitor",intact cells,added: [3H]ponasterone A,direction not given,pIC50 Z-score,0.51
COc1ccccc1-c1ccncc1C(=O)Nc1nnc(OCc2ccc(Cl)cc2)s1,"Bifunctional 3'-5' exonuclease/ATP-dependent helicase WRN, residues 500-946 (WRN, Homo sapiens, UniProt Q14191)","ATPase activity, ADP-Glo",,0.12 µM,reference: 0 µM cpd,remaining activity,110%
